Measurements gathered from unrelated publications.
“And” joins repeats or separate records; there may be more than shown. ± gives the spread as reported.
Oprm1: Mu-type opioid receptor (Oprm1, Rattus norvegicus, UniProt P33535)
Chain of UniProt P33535 (whole entry, looked up): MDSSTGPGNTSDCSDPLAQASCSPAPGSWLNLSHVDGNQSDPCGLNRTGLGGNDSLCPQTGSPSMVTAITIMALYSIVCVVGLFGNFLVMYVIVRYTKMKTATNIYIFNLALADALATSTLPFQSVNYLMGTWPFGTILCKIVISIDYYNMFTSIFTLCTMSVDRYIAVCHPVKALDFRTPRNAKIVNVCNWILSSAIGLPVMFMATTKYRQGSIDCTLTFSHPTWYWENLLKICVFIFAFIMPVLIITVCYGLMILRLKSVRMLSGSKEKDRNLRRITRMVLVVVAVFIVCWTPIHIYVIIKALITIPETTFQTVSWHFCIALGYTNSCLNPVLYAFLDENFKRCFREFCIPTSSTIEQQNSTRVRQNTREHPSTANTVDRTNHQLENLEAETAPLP
Uncharacterized hydrolase SAUSA300_2518: Uncharacterized hydrolase SAUSA300_2518 (Staphylococcus aureus, UniProt Q2FDS6)
lasR: Transcriptional activator protein LasR (lasR, Pseudomonas aeruginosa, UniProt P25084)
sdiA: Regulatory protein SdiA (sdiA, Escherichia coli, UniProt P07026)
Chain of UniProt Q00987 (whole entry, looked up): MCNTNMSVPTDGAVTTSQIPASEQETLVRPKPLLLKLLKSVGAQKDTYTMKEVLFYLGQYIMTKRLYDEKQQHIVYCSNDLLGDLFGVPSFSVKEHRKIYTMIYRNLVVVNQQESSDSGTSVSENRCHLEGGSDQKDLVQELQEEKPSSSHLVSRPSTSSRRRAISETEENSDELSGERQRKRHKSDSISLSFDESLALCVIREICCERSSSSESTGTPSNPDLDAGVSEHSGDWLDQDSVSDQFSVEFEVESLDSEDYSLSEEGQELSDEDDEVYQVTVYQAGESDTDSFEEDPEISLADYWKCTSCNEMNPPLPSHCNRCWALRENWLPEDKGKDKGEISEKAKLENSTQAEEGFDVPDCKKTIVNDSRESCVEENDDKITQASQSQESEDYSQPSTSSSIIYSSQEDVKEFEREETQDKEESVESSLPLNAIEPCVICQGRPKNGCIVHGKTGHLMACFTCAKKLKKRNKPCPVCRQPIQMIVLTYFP
Chain of UniProt Q14145 (whole entry, looked up): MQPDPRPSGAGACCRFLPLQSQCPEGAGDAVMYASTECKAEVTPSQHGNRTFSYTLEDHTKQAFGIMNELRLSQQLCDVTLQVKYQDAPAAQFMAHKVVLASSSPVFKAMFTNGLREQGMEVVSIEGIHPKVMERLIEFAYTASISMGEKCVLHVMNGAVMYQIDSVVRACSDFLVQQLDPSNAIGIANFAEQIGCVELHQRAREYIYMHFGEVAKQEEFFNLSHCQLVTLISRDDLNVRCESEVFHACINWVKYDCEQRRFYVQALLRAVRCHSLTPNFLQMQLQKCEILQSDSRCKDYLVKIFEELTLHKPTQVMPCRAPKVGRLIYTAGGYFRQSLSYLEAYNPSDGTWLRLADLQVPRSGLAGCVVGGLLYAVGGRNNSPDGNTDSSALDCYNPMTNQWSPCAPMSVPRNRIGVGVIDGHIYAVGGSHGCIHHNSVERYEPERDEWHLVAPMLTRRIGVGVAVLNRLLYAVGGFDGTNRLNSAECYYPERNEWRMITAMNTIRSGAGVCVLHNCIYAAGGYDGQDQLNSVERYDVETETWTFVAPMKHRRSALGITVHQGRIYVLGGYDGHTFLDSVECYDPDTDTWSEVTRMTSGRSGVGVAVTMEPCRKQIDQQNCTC
Chain of UniProt P07026 (whole entry, looked up): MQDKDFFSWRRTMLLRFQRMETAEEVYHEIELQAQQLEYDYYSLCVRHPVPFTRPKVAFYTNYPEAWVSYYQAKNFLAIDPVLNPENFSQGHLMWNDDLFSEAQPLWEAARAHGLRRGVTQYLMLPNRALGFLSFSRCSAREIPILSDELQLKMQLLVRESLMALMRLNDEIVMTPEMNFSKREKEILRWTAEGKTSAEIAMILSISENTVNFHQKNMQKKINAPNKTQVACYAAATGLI
Chain of UniProt Q9UM07 (whole entry, looked up): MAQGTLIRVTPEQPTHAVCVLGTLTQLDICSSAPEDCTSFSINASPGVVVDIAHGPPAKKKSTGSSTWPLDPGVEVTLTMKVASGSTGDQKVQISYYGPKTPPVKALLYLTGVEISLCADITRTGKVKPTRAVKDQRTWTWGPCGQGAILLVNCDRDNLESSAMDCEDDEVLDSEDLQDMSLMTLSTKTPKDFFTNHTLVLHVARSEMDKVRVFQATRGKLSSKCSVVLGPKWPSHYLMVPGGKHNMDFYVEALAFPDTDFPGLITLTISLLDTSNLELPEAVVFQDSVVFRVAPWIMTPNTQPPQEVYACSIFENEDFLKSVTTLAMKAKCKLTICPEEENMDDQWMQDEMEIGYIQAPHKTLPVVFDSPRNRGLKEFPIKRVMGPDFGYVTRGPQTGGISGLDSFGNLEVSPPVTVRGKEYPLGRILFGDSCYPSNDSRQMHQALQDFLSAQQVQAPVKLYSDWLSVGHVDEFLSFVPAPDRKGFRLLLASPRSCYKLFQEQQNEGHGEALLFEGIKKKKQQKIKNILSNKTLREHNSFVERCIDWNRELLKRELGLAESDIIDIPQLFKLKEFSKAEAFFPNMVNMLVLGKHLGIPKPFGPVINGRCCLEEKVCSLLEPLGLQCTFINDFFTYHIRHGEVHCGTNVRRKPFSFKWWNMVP
Chain of UniProt Q91V12 (whole entry, looked up): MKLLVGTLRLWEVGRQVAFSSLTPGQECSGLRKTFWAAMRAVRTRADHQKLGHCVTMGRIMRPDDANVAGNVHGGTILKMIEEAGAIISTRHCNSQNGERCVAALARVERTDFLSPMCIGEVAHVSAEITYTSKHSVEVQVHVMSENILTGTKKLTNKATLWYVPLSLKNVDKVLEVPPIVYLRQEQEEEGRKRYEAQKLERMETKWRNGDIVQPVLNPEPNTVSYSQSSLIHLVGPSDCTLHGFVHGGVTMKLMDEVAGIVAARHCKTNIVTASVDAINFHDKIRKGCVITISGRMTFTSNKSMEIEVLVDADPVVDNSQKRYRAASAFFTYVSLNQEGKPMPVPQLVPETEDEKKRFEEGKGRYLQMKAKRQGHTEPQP
Chain of UniProt P16234 (whole entry, unmodified, looked up): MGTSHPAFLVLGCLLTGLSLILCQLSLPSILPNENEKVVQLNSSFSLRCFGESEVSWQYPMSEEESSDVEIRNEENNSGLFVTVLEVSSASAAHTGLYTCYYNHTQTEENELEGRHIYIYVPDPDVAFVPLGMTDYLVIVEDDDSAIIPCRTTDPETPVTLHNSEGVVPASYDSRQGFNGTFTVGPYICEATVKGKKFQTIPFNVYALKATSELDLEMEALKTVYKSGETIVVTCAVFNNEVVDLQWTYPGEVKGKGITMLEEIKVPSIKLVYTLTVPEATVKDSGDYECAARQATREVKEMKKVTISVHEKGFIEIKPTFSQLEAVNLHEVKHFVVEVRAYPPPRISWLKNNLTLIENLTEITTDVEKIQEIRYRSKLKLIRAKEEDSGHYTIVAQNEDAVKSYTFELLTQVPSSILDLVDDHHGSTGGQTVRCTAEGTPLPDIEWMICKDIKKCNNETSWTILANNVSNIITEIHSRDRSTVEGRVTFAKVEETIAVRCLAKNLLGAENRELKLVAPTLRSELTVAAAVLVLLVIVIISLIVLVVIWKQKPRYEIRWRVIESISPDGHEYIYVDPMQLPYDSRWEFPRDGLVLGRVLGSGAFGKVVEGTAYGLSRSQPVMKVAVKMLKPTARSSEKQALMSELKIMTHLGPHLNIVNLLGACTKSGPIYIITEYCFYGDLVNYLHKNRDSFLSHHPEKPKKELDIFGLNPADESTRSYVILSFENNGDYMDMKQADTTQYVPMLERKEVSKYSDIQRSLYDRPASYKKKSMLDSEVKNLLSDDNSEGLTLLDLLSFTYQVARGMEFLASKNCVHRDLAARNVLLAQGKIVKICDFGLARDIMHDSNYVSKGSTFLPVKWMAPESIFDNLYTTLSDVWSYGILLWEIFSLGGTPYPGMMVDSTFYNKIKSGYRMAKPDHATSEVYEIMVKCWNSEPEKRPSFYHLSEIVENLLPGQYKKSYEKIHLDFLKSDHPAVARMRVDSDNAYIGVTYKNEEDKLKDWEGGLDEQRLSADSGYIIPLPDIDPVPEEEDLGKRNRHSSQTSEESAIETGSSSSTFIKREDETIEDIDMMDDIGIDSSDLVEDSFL
Chain of UniProt Q8WTQ7 (whole entry, looked up): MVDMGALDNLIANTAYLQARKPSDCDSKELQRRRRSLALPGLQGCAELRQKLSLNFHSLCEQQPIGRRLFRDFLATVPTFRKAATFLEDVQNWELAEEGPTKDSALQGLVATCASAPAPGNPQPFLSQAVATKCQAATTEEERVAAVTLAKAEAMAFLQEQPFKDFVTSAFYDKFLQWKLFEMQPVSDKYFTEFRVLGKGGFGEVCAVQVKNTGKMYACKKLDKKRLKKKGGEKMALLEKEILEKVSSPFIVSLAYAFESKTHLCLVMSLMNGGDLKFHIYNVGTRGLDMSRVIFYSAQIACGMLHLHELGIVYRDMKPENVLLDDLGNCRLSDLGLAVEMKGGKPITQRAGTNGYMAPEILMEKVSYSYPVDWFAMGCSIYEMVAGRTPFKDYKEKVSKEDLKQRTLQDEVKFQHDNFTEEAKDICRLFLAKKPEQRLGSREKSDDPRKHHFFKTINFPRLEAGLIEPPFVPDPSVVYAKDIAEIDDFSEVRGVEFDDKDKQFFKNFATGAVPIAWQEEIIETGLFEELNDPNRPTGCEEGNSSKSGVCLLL
Chain of UniProt P21554 (whole entry, looked up): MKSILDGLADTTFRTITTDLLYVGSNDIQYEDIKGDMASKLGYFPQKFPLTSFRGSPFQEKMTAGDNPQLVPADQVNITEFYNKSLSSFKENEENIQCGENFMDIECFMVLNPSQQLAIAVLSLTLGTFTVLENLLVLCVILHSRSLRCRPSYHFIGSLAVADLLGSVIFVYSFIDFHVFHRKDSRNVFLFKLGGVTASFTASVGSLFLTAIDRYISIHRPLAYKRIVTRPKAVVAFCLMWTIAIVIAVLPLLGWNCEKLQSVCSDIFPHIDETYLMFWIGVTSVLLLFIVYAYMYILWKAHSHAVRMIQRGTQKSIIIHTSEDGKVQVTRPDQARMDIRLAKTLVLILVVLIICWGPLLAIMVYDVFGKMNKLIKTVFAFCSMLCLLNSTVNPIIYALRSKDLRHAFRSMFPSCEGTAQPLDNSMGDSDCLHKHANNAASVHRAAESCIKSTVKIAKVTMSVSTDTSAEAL

Structure (SMILES)	tested on	assay	test system	setting	how to read	quantity	result
COc1ccc2nc3cc(Cl)ccc3c(Nc3cc(C(C)C)c(O)cc3C)c2c1	Tumor susceptibility gene 101 protein (Homo sapiens, UniProt Q99816)	thermal stability	–	800 µM	–	ΔTm	8.1 °C
CCCCCCCCCCCCCCC(=O)N[C@@H](CCCCNC(=O)CN1CCN(CC(=O)O)CCN(CC(=O)O)CCN(CC(=O)O)CC1)C(=O)NCCCC[C@@H]1NC(=O)[C@@H](Cc2ccccc2)NC(=O)[C@H](CC(=O)O)NC(=O)CNC(=O)[C@H](CCCNC(=N)N)NC1=O [actinium-225 labelled]	–	–	BxPC-3 xenograft mice, blood	40 kBq, end of study	–	GOT and GPT levels	increased
C[C@@H](O)[C@@H]1CN([C@@H](CC2CCCCC2)CN2CCC[C@H]2CN2CCNC[C@@H]2Cc2ccc3ccccc3c2)CCN1CCC12CC3CC(CC(C3)C1)C2	Oprm1	radioligand binding	rat brain membranes	500 nM, pH 7.5, 25 °C, with: 0.87 nM [3H]DAMGO	–	remaining binding	111 ± 5.93%
O=C1NC2(CC2)COc2ncc(F)cc2[C@H]2COCCN2c2ccn3ncc1c3n2	–	–	Sprague-Dawley rat, male, heart	oral, 2.5 mg/kg/day, 4 weeks dosing, end of recovery	–	organ-to-body weight ratio	0.315 ± 0.013%
Cc1ccc(OS(=O)(=O)F)c(C(=O)Nc2ccncc2)c1	Uncharacterized hydrolase SAUSA300_2518	enzyme activity, inhibitor, fluorogenic substrate	–	0.05 µM	–	remaining activity	94.1% and 89.9% and 87.3%
O=C(CCCOc1ccc(Cl)cc1)N[C@H]1CCOC1=O	lasR	reporter gene, agonist	Escherichia coli JLD271	10 µM, pSC11 and pJN105L plasmids	reference: OdDHL at same concentration	agonist activity	11%
O=C1NC(=O)c2c1c1cc(F)c[n+]3c1c1c2c2cc(O)ccc2[n]1[Ru-4]312([N]=C=S)[S+]3CC[S+]1CC[S+]2CC3 (stereo not drawn)	PDGFRA (Homo sapiens, UniProt P16234, D842V)	enzyme activity	–	100 nM, human enzyme, with: 10 µM ATP	reference: untreated	remaining activity	7%
CC[C@H](C)[C@@H]1NC(=O)[C@H](CC(C)C)NC(=O)CNC(=O)[C@H](CCCNC(=N)N)NC(=O)[C@H](Cc2c[nH]c3ccccc23)NC(=O)[C@H](CCSC)NC(=O)[C@H](CO)NC(=O)[C@H](CCC(=O)O)NC(=O)[C@H](Cc2ccccc2)NC(=O)[C@H](CC(=O)O)NC(=O)[C@H]([C@@H](C)O)NC(=O)CNC(=O)[C@H](CCC(=O)O)NC(=O)[C@H]([C@@H](C)O)NC(=O)CNC(=O)[C@H](CC(=O)O)NC1=O	MDM2 (Homo sapiens, UniProt Q00987)	MDM2-ligand binding, inhibitor, AlphaLISA competition	–	200 µM, with: GST-tagged MDM2 ligand	lower = stronger inhibition	AlphaLISA signal	822 a.u. and 759 a.u. and 851 a.u.
Oc1ccc(C[C@@H]2CN([C@@H](CC3CCCCC3)CN3CCC[C@H]3CN3CCNC[C@@H]3Cc3ccc4ccccc4c3)CCN2CCc2ccc(Cl)c(Cl)c2)cc1	Oprm1	radioligand binding	rat brain membranes	500 nM, pH 7.5, 25 °C, with: 0.87 nM [3H]DAMGO	–	remaining binding	113 ± 6.78%
O=S(=O)(F)c1cccc2c1OCC2	Uncharacterized hydrolase SAUSA300_2518	enzyme activity, inhibitor, fluorogenic substrate	–	5 µM	–	remaining activity	120% and 115%
O=C(COc1ccc(I)cc1)N[C@H]1CCSC1=O	sdiA	–	–	–	–	Emax	92%
N[C@H](C(=O)N1CCCC1)C1CCN(c2nccc3c(-c4ncc(Cl)cc4Cl)cccc23)CC1	PADI4 (Homo sapiens, UniProt Q9UM07)	enzyme activity	–	0.0983 µM, with: Ca2+ 0.25 mM	–	kcat	0.236 s⁻¹ and 0.224 s⁻¹
CC(C)CC(O)(CC(C)C)c1cn(C(=O)N2CCCC2)nn1	Cytosolic acyl coenzyme A thioester hydrolase (Acot7, Mus musculus, UniProt Q91V12)	probe labelling, inhibitor, competitive ABPP-SILAC, refers to: Acot7	mouse T cells	concentration not given, 4 h, protein level	reference: treated over DMSO cells, lower = stronger inhibition	median SILAC activity ratio	1.15
CC(C)[C@H]1NC(=O)C[C@H]2/C=C/CCSSC[C@@H](NC1=O)C(=O)N[C@H](Cc1cccc3ccccc13)C(=O)NCC(=O)O2	PHKG1 (Homo sapiens, UniProt Q16816)	enzyme activity, inhibitor	–	10 µM	–	inhibition	3.3%
CC(=O)N[C@@H](CCC(N)=O)C(=O)N[C@@H](CC1CCCCC1)C(=O)N[C@@H](CNC(=O)CCl)C(=O)N[C@@H](CC(C)C)C(=O)N[C@@H](Cc1ccccc1)C(=O)O	Beta sliding clamp (Escherichia coli, UniProt P0A988, H175G)	isothermal titration calorimetry	–	25 °C	–	ΔH	-9.6 kcal/mol
COC(=O)[C@@H](NC(=O)c1nn(Cc2ccc(F)cc2)c2cc(OCCCCNC(=N)N)ccc12)C(C)(C)C	CNR1 (Homo sapiens, UniProt P21554)	BRET	–	concentration not given	reference: FUB over compound, fold lower activation	β-arrestin-2 recruitment	~3.5 fold
CCOC(=O)[C@@H]1Cc2c(cc([N+](=O)[O-])cc2[N+](=O)[O-])[C@H](O)[C@]12C(=O)Nc1ccc(Br)cc12	RAF1 (Homo sapiens, UniProt P04049)	binding, competition with immobilised ligand	–	0.1 µM	–	remaining binding	93%

Structure (SMILES)	tested on	assay	test system	setting	how to read	quantity	result
CN(/N=C/c1ccccc1C(=O)O)c1nc(-c2ccccc2Cl)cs1	HIPK2 (Homo sapiens, UniProt Q9H2X6)	enzyme activity, inhibitor	–	1 µM	–	inhibition	-10.2%
O=C(CN1CN(c2ccccc2)C2(CCN(C(=O)c3cnc4[nH]ncc4c3)CC2)C1=O)NCC(F)(F)F	CDK19 (Homo sapiens, UniProt Q9BWU1)	inhibitor	–	concentration not given	–	inhibition	< 50%
CCCCCCC(=O)N[C@H]1CCOC1=O	sdiA	–	–	–	–	Emax	78.2%
CN(C)[C@H]1C[C@@]23CC[C@@]4(O2)C(=CC[C@]2(C)[C@@H](c5ccc6ccncc6c5)CC[C@H]24)C=C3[C@@H](O)[C@@H]1O	PI4KB (Homo sapiens, UniProt Q9UBF8)	ATP probe labelling, inhibitor, KiNativ profiling	–	0.1 µM	–	inhibition	-0.8%
O=C(CCCOc1cccc(Br)c1)N[C@H]1CCSC1=O	lasR	reporter gene, agonist	–	–	reference: EC50 PAO-JP2 over E. coli JLD271	potency ratio	320
CS(C)(=O)=Nc1ccc(-c2ccc(-c3nc4cc(O[C@@H]5CO[C@H]6[C@@H]5OC[C@H]6O)[nH]c4cc3F)cc2)cc1	GRK7 (Homo sapiens, UniProt Q8WTQ7)	enzyme activity, inhibitor	–	10 µM	–	inhibition	-12%
C[C@H](NCc1ccc(-c2ccc(C(F)(F)F)cc2)cc1)C(N)=O	protein kinase C, rat	enzyme activity	biochemical	1 µM, with: histone 370 µg/mL	–	inhibition	12%
CC(C)[C@@H]1NC(=O)[C@H](CCC(=O)O)NC(=O)CNC(=O)[C@H]([C@@H](C)O)NC(=O)[C@H](CCC(=O)O)NC(=O)[C@H](CCC(=O)O)NC(=O)[C@H](CC(=O)O)NC(=O)[C@H](C(C)C)NC(=O)[C@H]([C@@H](C)O)NC(=O)CNC(=O)[C@H](CC(=O)O)NC(=O)[C@H](CC(N)=O)NC(=O)[C@H](Cc2ccc(O)cc2)NC1=O	KEAP1 (Homo sapiens, UniProt Q14145)	Keap1-Nrf2 binding, inhibitor, competitive FP	–	0.3906 µM, 30 min, with: Nrf2 peptide probe	lower = stronger inhibition	fluorescence polarization	0.167 a.u. and 0.177 a.u.
CCC(C)C1CN(C(CC2CCCCC2)CN2CCCC2CN2CCNCC2CO)CCN1CCCC1CCCC1 (stereo not drawn)	Oprm1	radioligand binding	rat brain membranes	500 nM, pH 7.5, 25 °C, with: 0.87 nM [3H]DAMGO	–	remaining binding	105 ± 6.16%
CCCCCCCCCNC(=O)CC(=O)c1ccccc1	lasR	reporter gene, agonist	Pseudomonas aeruginosa PAO-JP2	100 µM, plasI-LVAgfp reporter	reference: OdDHL at same concentration	agonist activity	3%
COc1ccccc1-c1n[nH]c2nc(N[C@H]3CC[C@H](NS(=O)(=O)CC(C)C)CC3)ncc12	cyclin 9 (Leishmania donovani, UniProt A0A2D1QVA3)	competitor, bead pull-down competition	Leishmania donovani extract	0.016 µM	reference: vehicle	remaining binding	10%
CN(C)CCCSC(=S)N1CCN(C(=O)/C=C/c2coc3ccccc3c2=O)CC1	Nucleoprotein (N, Tomato spotted wilt virus, UniProt P25999, Y184A)	binding, microscale thermophoresis	–	62.5 µM	dose series	MST response	845 a.u.
N=C(N)NCCC[C@@H]1NC(=O)[C@H](CCCCNC(=O)CCC(NC(=S)Nc2ccc(CC3CN(CC(=O)O)CCN(CC(=O)O)CCN(CC(=O)O)CCN3CC(=O)O)cc2)C(=O)NCCCC[C@@H]2NC(=O)[C@@H](Cc3ccc(O)cc3)NC(=O)[C@H](CC(=O)O)NC(=O)CNC(=O)[C@H](CCCNC(=N)N)NC2=O)NC(=O)[C@@H](Cc2ccc(O)cc2)NC(=O)[C@H](CC(=O)O)NC(=O)CNC1=O (stereo partly drawn) [scandium-44 labelled]	–	PET imaging ROI	female athymic nude mice, U-87 MG xenograft, liver	intravenous, 0.5 h, with: cRGD 50 mg/kg blocking	–	tissue uptake	0.65 ± 0.14 %ID/g
CC(C)C[C@H](NC(=O)[C@H]1O[C@@H]1C(=O)O)C(=O)NCCCCN=C(N)N	Cathepsin S (CTSS, Homo sapiens, UniProt P25774)	–	–	–	–	Hill slope	-1.33
CC(C)(C)C(=O)OCOP(=O)(OCOC(=O)C(C)(C)C)C1CCCN(O)C1=O (stereo not drawn)	A549	–	–	–	–	GI50	637 nM
Cc1cc(C)cc(COc2cc3c(cc2OCc2cc(C)cc(C)c2)C2CC(O)(Cc4cn(CCOCCOCCOCCNc5cccc6c5C(=O)N(C5CCC(=O)NC5=O)C6=O)nn4)CC(C)N2CC3)c1 (racemic)	Rab GDP dissociation inhibitor beta (Homo sapiens, UniProt P50395)	degrader, Western blot	PC-3	2 µM, 24 h	–	degradation	6%

Some of these lines once more:
Structure (SMILES)	tested on	assay	test system	setting	how to read	quantity	result
O=C(COc1ccc(I)cc1)N[C@H]1CCSC1=O	sdiA	–	–	–	–	Emax	92%
N[C@H](C(=O)N1CCCC1)C1CCN(c2nccc3c(-c4ncc(Cl)cc4Cl)cccc23)CC1	PADI4 (Homo sapiens, UniProt Q9UM07)	enzyme activity	–	0.0983 µM, with: Ca2+ 0.25 mM	–	kcat	0.236 s⁻¹ and 0.224 s⁻¹
CC(C)CC(O)(CC(C)C)c1cn(C(=O)N2CCCC2)nn1	Cytosolic acyl coenzyme A thioester hydrolase (Acot7, Mus musculus, UniProt Q91V12)	probe labelling, inhibitor, competitive ABPP-SILAC, refers to: Acot7	mouse T cells	concentration not given, 4 h, protein level	reference: treated over DMSO cells, lower = stronger inhibition	median SILAC activity ratio	1.15
